Measured values of several laboratories.
T1: RNA aptamer A50U; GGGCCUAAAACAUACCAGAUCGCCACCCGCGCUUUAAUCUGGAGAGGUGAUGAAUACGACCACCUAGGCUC
T2: RNA aptamer; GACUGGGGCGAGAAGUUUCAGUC
T3: RNA aptamer A13U; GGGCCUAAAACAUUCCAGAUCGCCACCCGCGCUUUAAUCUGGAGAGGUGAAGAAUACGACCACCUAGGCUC
T4: RNA aptamer truncated FMN aptamer; GGUACUUCGGGAAG
T5: RNA aptamer; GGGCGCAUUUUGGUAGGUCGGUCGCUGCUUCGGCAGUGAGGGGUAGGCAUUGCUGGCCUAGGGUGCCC
T6: RNA aptamer, tobramycin-binding; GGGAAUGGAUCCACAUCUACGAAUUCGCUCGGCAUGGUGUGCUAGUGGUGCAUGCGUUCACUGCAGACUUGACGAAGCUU
T7: RNA aptamer; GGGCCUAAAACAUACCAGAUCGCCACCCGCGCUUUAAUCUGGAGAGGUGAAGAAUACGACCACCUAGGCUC
T8: RNA aptamer; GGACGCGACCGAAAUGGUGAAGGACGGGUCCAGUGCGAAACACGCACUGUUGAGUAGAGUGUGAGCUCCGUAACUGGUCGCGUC
T9: RNA aptamer, 2'-F pyrimidines; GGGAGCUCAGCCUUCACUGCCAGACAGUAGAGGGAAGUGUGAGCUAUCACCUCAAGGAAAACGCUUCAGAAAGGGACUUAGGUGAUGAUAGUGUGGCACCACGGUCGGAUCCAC

Structure (SMILES)	target	method	pH	temperature	notes	Kd
CN(C)C1C(O)=C(C#N)C(=O)C2(O)C(O)=C3C(=O)c4c(O)cccc4C(C)(O)C3CC12 (stereo not drawn)	T1, RNA aptamer A50U	fluorescence titration	pH 7.5	25 °C	MgCl2 10 mM	2570 nM
NC[C@@H]1O[C@H](O[C@H]2[C@@H](O)[C@H](O[C@@H]3[C@@H](O)[C@H](N)C[C@H](N)[C@H]3O[C@H]3O[C@H](CN)[C@@H](O)[C@H](O)[C@H]3N)O[C@@H]2CO)[C@H](N)[C@@H](O)[C@@H]1O	T2, RNA aptamer	ITC			NaCl 200 mM	34.1 nM
CN(C)[C@@H]1C(=O)C(C(N)=O)=C(O)[C@@]2(O)C(=O)C3=C(O)c4c(O)cccc4[C@@](C)(O)[C@H]3C[C@@H]12	T3, RNA aptamer A13U	ITC	pH 7.5	25 °C	MgCl2 10 mM	189 nM
Cc1cc2nc3c(=O)[nH]c(=O)nc-3n(C[C@H](O)[C@H](O)[C@H](O)COP(=O)(O)O)c2cc1C	T4, RNA aptamer truncated FMN aptamer	fluorescence quenching				4100 nM
Nc1nc2c(ncn2[C@@H]2O[C@H](COP(=O)(O)OP(=O)(O)OP(=O)(O)O)[C@@H](O)[C@H]2O)c(=O)[nH]1	T5, RNA aptamer	ITC	pH 6.5	20 °C	NH4Cl 50 mM	3100 nM
CNC1C(OC2OC(CO)C(N)C(O)C2O)OC2CC(N)C(OC3C(N)CC(NC(=O)CCOCCOCCOCCOCCOCCOCCOCCOCCOCCOCCOCCOCCNC(=O)CCCC[C@@H]4SC[C@@H]5NC(=O)N[C@@H]54)C(O)C3O)OC2C1O (stereo partly drawn)	T6, RNA aptamer, tobramycin-binding	SPR			apparent	570 nM
CN(C)[C@@H]1C(=O)C(C(N)=O)=C(O)[C@@]2(O)C(=O)C3=C(O)c4c(O)ccc(Cl)c4[C@@](C)(O)[C@H]3C[C@@H]12	T7, RNA aptamer	fluorescence titration	pH 7.5	25 °C	MgCl2 10 mM	0.573 nM
CN1C=CC(=Cc2sc3ccccc3[n+]2CC(=O)NCCOCCOCCOCCNC(=O)CCCC[C@@H]2SC[C@@H]3NC(=O)N[C@@H]32)c2ccccc21	T8, RNA aptamer	fluorescence titration			140 mM KCl, room temperature	830 nM
CN[C@@H]1[C@H](O[C@H]2[C@H](O[C@H]3[C@H](O)[C@@H](O)[C@H](N=C(N)N)[C@@H](O)[C@@H]3N=C(N)N)O[C@@H](C)[C@]2(O)C=NNC(=O)CCOCCOCCOCCOCCNC(=O)CCCC[C@@H]2SC[C@@H]3NC(=O)N[C@@H]32)O[C@@H](CO)[C@H](O)[C@H]1O	T9, RNA aptamer, 2'-F pyrimidines	SPR			apparent	212 nM

For quick reference, copied from above:
Structure (SMILES)	target	method	pH	temperature	notes	Kd
NC[C@@H]1O[C@H](O[C@H]2[C@@H](O)[C@H](O[C@@H]3[C@@H](O)[C@H](N)C[C@H](N)[C@H]3O[C@H]3O[C@H](CN)[C@@H](O)[C@H](O)[C@H]3N)O[C@@H]2CO)[C@H](N)[C@@H](O)[C@@H]1O	T2, RNA aptamer	ITC			NaCl 200 mM	34.1 nM
